Measurements pooled from the literature.
Each line is one published result; not all experiments were run side by side. “And” joins repeats or separate records; there may be more than shown. Numbers after ± are the reported error.

Structure (SMILES) | tested on | assay | test system | setting | how to read | quantity | value
CCCCN1CCN(c2ccc3nc(-c4ccc5nc(-c6cc(OC)ccc6OC)[nH]c5c4)[nH]c3c2)CC1 | SNB-75 | SRB |  | 10 µM, 48 h |  | growth percent | 85.7%
c1ccc2[nH]ccc2c1 | HCT-8 | RNA-seq, item: CYP1A1 |  | concentration not given |  | mRNA level, LS mean | 12.4 counts per million
COc1cc(N2CCC(N3CCN(C)CC3)CC2)ccc1Nc1ncc(Cl)c(Nc2ccccc2P(C)(C)=O)n1 | Ba/F3 EML4-ALK variant 1 S1206Y | cell viability |  |  |  | Emax | 100%
O=C(O)c1cc(Cl)ccc1S(=O)(=O)NCCCCN1C(=O)c2cccc3cccc(c23)C1=O | Lgr5+ stem cells | lineage tracing | mouse intestinal enteroids | concentration not given, day 3 post-irradiation, 5 Gy, pretreated |  | Tdtomato+ crypt cells | 11.6 ± 0.6 cells/50µm
Nc1cccc2c1C(=O)N(C1CCC(=O)NC1=O)C2=O (centres unmarked) | RPMI-8226 | flow cytometry, item: CD197 |  | concentration not given | relative to: comparator compound alone | surface marker level | 58.1%
CC1(C)COc2ccc(F)cc2CN2c3nc4c(cnn4cc3OC[C@H]2C(F)F)C(=O)N1 | Ba/F3 EML4-ALK v1 | cell viability |  |  |  | Emax | 99.4%
COc1ccc(-n2nc(C(C)=O)s/c2=N\N=C(/C)c2ccc(NC(=O)c3ccccc3)cc2)cc1 | HepG2 |  |  | 5 µM |  | toxicity | 97%
Cl.Cl.NCCNS(=O)(=O)c1ccc(Cl)c2ccncc12 | SK-OV-3 | ATP | 3D gellan gum culture | 0.01 µM, 4 days | relative to: untreated | relative cell number | 96.6%
c1ccc2c(c1)cc1ccc3cccc4ccc2c1c34 | HaCaT keratinocytes | LC-MS |  | 0.5 µM, 24 h pretreatment, then 6 h, together with: imiquimod 0.5 µM | relative to: untreated | monohydroxylated imiquimod metabolite formation | ~10 fold
NS(=O)(=O)C#Cc1ccccc1 | Toxoplasma gondii | parasite growth | HFF, bradyzoite, glutamine-induced |  |  | EC50 | 8.66 µM
C=CC(=O)N1CCC(COCC(=O)N2CCN(c3nc(-c4cnc(N)nc4C(F)F)nc(N4CCOC[C@@H]4C)n3)CC2)CC1 | MDA-MB-453 | resazurin growth rate inhibition |  | 72 h |  | GR50 | 0.8 nM
FC(F)(F)COCC(F)(F)F | MCF-10A | CellTiter-Glo |  | concentration not given | relative to: normalised luminescence | viability | 111%
C#C[C@@]1(O)[C@@H](CO)O[C@@H](n2ccc3c(N)ncnc32)[C@@H]1O | NCI60 panel | cell growth |  | mean over panel |  | TGI | -5.1 log M
COc1c(C)c(OCc2ccccc2)c(C)c(O)c1C(=O)/C=C/c1ccccc1 | FaDu | SRB |  |  | relative to: normal over FaDu IC50 | selectivity index | 1.62
[Cl-].[Cl-].[Os+2].c1cnc2c(c1)ccc1cccnc12.c1cnc2c(c1)ccc1cccnc12.c1cnc2c(c1)ccc1cccnc12 | SK-MEL-28 | resazurin |  | normoxia, together with: red light 633 nm | relative to: dark EC50 over light EC50 | phototherapeutic index | 2
CC(C)(C)C(=O)Oc1ccc(S(=O)(=O)Nc2ccccc2C(=O)NCC(=O)O)cc1 | human peripheral blood neutrophils | flow cytometry FSC/SSC |  | 500 µM, together with: TNF-α 5 ng/mL, MPO-ANCA immune complex | relative to: unstimulated neutrophils | neutrophil swelling | 1.44 fold change and 2.1 fold change and 2.48 fold change and 2.45 fold change
COc1cc(NC(C)CCCN)c2ncccc2c1 (centres unmarked) | MYBPC3 mutant iPSC-derived cardiomyocytes | item: MyBP-C |  | concentration not given, fresh powder |  | activity on retest | inactive
CC/C(=N\NC(=O)NCc1cccc(O)c1)c1ccc(O)c(C)c1O | SK-OV-3 | microarray, item: JUNB | 3D culture in gellan gum | 10 µM, 24 h | relative to: DMSO | log ratio of mRNA level | -2.77
COc1cc(/C=C/C(=O)N2CCC=CC2=O)cc(OC)c1OC | Toxoplasma gondii | parasite growth | HFF, bradyzoite, alkaline-induced |  |  | EC50 | 6.71 µM
CCn1cc(-c2cc(Cn3ccoc3=N)cc3c2CCN([C@@H](C)c2cc(OC)ccn2)C3=O)c(C(F)(F)F)n1 | FaDu | cell growth, inhibitor |  | 120 h |  | EC50 | 0.955 µM
CC(C)NCC(O)c1ccc(O)c(O)c1 (centres unmarked) | mouse ventricular cardiomyocytes |  |  | dose not given, 0.147 s |  | sarcomere length | 1.59 µm
Cn1cncc1C1=CN(c2ncnc3[nH]cnc23)CCS1 | MDA-MB-231/ATCC |  |  |  |  | TGI | 144 µM
CCCN1CCN(c2ccc3[nH]c(-c4ccc5[nH]c(-c6ccc(OCC)c(OCC)c6)nc5c4)nc3c2)CC1 | SNB-75 | SRB |  | 10 µM, 48 h |  | growth percent | -77.9%
CC(C)(C)c1cc(O)ccc1O | HepG2 | extracellular flux, item: oxygen consumption rate |  | 1 h, distribution mode 1 |  | point of departure | 0.0115 µM
O=C(Nc1nnc2n3c(Cc4ccccc4)n[nH]c3nc(-c3ccc(Cl)cc3)c1-2)c1ccccc1 | MDA-MB-231/ATCC | NCI60 SRB |  | 10 µM |  | growth percent | 96.3%

Structure (SMILES) | tested on | assay | test system | setting | how to read | quantity | value
Cc1c(C(=O)O)ccc2c3n(nc12)[C@@H]1[C@H](C3)N(CC2CC2)[C@@]2(C(=O)Nc3cc(Cl)ccc32)[C@H]1c1cccc(Cl)c1F | DK-MG | cell proliferation, alamarBlue |  |  |  | IC50 | 0.00026 µM
COc1cnc2cccc(N3CCc4c(cc(Cn5ccnc5C)cc4-c4cn(C)nc4C(F)(F)F)C3=O)c2c1 | SNU761 | cell growth |  | 120 h |  | EC50 | > 30 µM
C=CC1=C(C)c2cc3[n-]c(cc4nc(cc5[n-]c(cc1n2)c(C)c5C=C)C(C)=C4CCC(=O)O)c(CCC(=O)O)c3C.[Zn+2] | SH-SY5Y | RNA-seq, item: MALL mRNA |  | 5 µM, 5 h | relative to: untreated cells | fold change | 44.3
Cn1cc(-c2ccc(-c3cncc(Cl)c3N3CCC4(CCNC4=O)CC3)cc2)cn1 | COLO 205 | gene expression, microarray, item: CCNB1 mRNA |  | concentration not given, 6 h | relative to: untreated cells | log2 fold change | -2.54
CCn1cc(-c2cc(Cn3ccnc3)cc3c2CCN([C@H](c2cc(OC)ccn2)C2CC2)C3=O)c(C(F)(F)F)n1 | U266B1 | cell growth |  | 120 h |  | EC50 | > 30 µM
COc1ccc(NC(=O)c2c(Nc3ccccc3)sc(C(=O)NN=Cc3ccc(OC)c(O)c3)c2NC(C)=O)cc1 | HepG2 | flow cytometry |  | IC50, 24 h |  | cells in Apoptosis | 6.07 ± 0.42%
NC1(c2ccc(-c3nc4ccn5c(=O)[nH]nc5c4cc3-c3ccccc3)cc2)CCC1 | MDA-MB-468 | flow cytometry PI |  | EC60, 72 h |  | G2/M phase cells | 27.7%
O=S(=O)(O)O | human neutrophils | anion exchange, substrate, trans-stimulated sulfate efflux |  | 85 mM K+, glucuronate medium, together with: nigericin 2 µM |  | Km | 15.5 mM
Cc1cc(C)n(C(=S)[S][Au][PH](CCCCCC[PH]([Au][S]C(=S)n2nc(C)cc2C)(c2ccccc2)c2ccccc2)(c2ccccc2)c2ccccc2)n1 | MDA-MB-231/ATCC | cell growth, NCI-60 screen |  | breast cancer |  | log TGI | > -4 log10 M
CCCCc1oc2ccccc2c1C(=O)c1cc(I)c(OCCN(CC)CC)c(I)c1 | human embryonic stem cell aggregates | microarray |  | 4 µM, 120 h, fold change above 1.5 |  | differentially expressed genes number | 602
Cc1ccc(NC(=O)[C@H]2CCCN(C(=O)c3c(C)cccc3F)[C@H]2c2ccc(NC3CCCC3)cc2)cc1C(F)(F)F | human peripheral blood neutrophils | flow cytometry FSC/SSC |  | 1 µM, together with: TNF-α 5 ng/mL, MPO-ANCA immune complex | relative to: unstimulated neutrophils | neutrophil swelling | 2.79 fold change and 2.6 fold change and 4.04 fold change and 3.01 fold change
Nc1ncnc2c1ncn2[C@@H]1O[C@H](CO)[C@@H](O)[C@H]1O | activated human T cells |  |  | 316 nM | higher = more IFNγ | IFNγ production | 485 a.u. and 365 a.u. and 353 a.u.
CCCC(=O)Oc1c(C)c(O)c(C(=O)/C=C/c2ccccc2)c(OC)c1C | FaDu | SRB |  |  | relative to: normal over FaDu IC50 | selectivity index | 1.05
CCc1cnc(N2CCC(c3nc(COc4ccc(-n5cnnn5)cc4)cs3)CC2)nc1 | HEK-293T | RNA-seq GSEA, item: HALLMARK_MTORC1_SIGNALING |  | concentration not given | direction not given | normalized enrichment score | 1.77
CSc1nc(-c2ccc(Cl)cc2)c2c(NC(=O)c3ccccc3)nnc-2[nH]1 | Malme-3M | SRB |  | 10 µM, NCI60 single-dose screen | relative to: untreated | cell growth | 92.7%
O=C(/C=C/C=C/C=C/C1CCCCC1)NC1=C[C@@](O)(/C=C/C=C/C=C/C(=O)NC2=C(O)CCC2=O)[C@@H]2O[C@@H]2C1=O | COR-L23 | cell growth, CellTiter-Glo |  | 78 h |  | GI50 | 17.5 µM
C=Cc1c2[n-]c(c1C)/C=c1\[n-]/c(c(C)c1C=C)=C\c1[n-]c(c(CCC(=O)O)c1C)/C=c1\[n-]c(c(C)c1CCC(=O)O)=C2.[Sn+4] | SH-SY5Y | RNA-seq, item: ANKRD1 mRNA |  | 5 µM, 5 h | relative to: untreated cells | fold change | 2.89
N#Cc1ccc(C[C@H](Nc2nnc(-c3ccc(Br)cc3)o2)C(=O)N2CCc3ccccc32)cc1 | human neutrophils | calcium mobilization, agonist |  |  |  | EC50 | 4.3 ± 0.3 µM
CC(=O)c1nn(-c2ccc(Cl)cc2)/c(=N/N=C(\C)c2ccc(NC(=O)c3ccc(Cl)cc3)cc2)s1 | MCF7 |  |  | 0.312 µM |  | viability | 99.9%
Cn1cc(-n2cnc3c(NCc4nc5cc(Cl)c(Cl)cc5[nH]4)nc(N4CCOCC4)nc32)cn1 | MDA-MB-468 | cell viability, CellCounting-Lite |  | 74.07 nM, 37 °C | higher = more viable cells | luminescence signal | 65700 a.u. and 57800 a.u.
C=CCn1c(=O)c2cnc(Nc3ccc(N4CCN(C)CC4)cc3)nc2n1-c1ccc2c(n1)[C@@](O)(CC)CC2 | NCI-H1048 | flow cytometry, item: pHH3-γH2Ax- |  | concentration not given |  | G2/M cells in subpopulation | 58.8%
Cn1cc(Nc2nccc(-c3ccc4c(c3)CN(C3COC3)CC[C@H]4NC(=O)c3cn(C(C)(C)C)nn3)n2)cn1 | human B cells |  |  | 100 nM, 64 h, stimulation-downregulated genes, together with: CD40L, anti-IgM, IL-21 |  | number of downregulated genes | 5
Cc1ccc(Cn2cc(COc3cccc(Cc4cnc(NC(=O)CSc5nc(C)cc(C)n5)s4)c3)nn2)cc1 | PC-3M-luc | colony formation, colony forming |  | 1 µM |  | inhibition | 4.8 ± 3.1%
CSCC[C@H](NC(=O)[C@H](Cc1ccc(OS(=O)(=O)O)cc1)NC(=O)[C@@H](N)CC(=O)O)C(=O)NCC(=O)N[C@@H](Cc1c[nH]c2ccccc12)C(=O)N[C@@H](CCSC)C(=O)N[C@@H](CC(=O)O)C(=O)N[C@@H](Cc1ccccc1)C(N)=O | HEK293T control virus | agonist, GloSensor cAMP |  | 0.001024 nM, no receptor expressed | higher = more cAMP | cAMP accumulation | 0.139 a.u.
COc1cc2ncnc(Nc3ccc(Oc4ccccc4)c(C)c3C)c2cc1OC.Cl | LoVo (KRAS G13D) | cell viability |  | concentration not given, 72 h, together with: trametinib | direction not given | Bliss synergy score | -27.1%

Some of these lines once more:
Structure (SMILES) | tested on | assay | test system | setting | how to read | quantity | value
CC(C)(C)c1cc(O)ccc1O | HepG2 | extracellular flux, item: oxygen consumption rate |  | 1 h, distribution mode 1 |  | point of departure | 0.0115 µM
O=C(O)c1cc(Cl)ccc1S(=O)(=O)NCCCCN1C(=O)c2cccc3cccc(c23)C1=O | Lgr5+ stem cells | lineage tracing | mouse intestinal enteroids | concentration not given, day 3 post-irradiation, 5 Gy, pretreated |  | Tdtomato+ crypt cells | 11.6 ± 0.6 cells/50µm
NC1(c2ccc(-c3nc4ccn5c(=O)[nH]nc5c4cc3-c3ccccc3)cc2)CCC1 | MDA-MB-468 | flow cytometry PI |  | EC60, 72 h |  | G2/M phase cells | 27.7%
CCn1cc(-c2cc(Cn3ccnc3)cc3c2CCN([C@H](c2cc(OC)ccn2)C2CC2)C3=O)c(C(F)(F)F)n1 | U266B1 | cell growth |  | 120 h |  | EC50 | > 30 µM
Cn1cc(-n2cnc3c(NCc4nc5cc(Cl)c(Cl)cc5[nH]4)nc(N4CCOCC4)nc32)cn1 | MDA-MB-468 | cell viability, CellCounting-Lite |  | 74.07 nM, 37 °C | higher = more viable cells | luminescence signal | 65700 a.u. and 57800 a.u.
COc1ccc(NC(=O)c2c(Nc3ccccc3)sc(C(=O)NN=Cc3ccc(OC)c(O)c3)c2NC(C)=O)cc1 | HepG2 | flow cytometry |  | IC50, 24 h |  | cells in Apoptosis | 6.07 ± 0.42%
C=CC(=O)N1CCC(COCC(=O)N2CCN(c3nc(-c4cnc(N)nc4C(F)F)nc(N4CCOC[C@@H]4C)n3)CC2)CC1 | MDA-MB-453 | resazurin growth rate inhibition |  | 72 h |  | GR50 | 0.8 nM
